Published values gathered from unrelated publications.
Each numbered part is a random draw from the data of one study; scales do not carry over between parts.

Block 1
Target: Centromere-binding protein 1, full length, His-tagged (CBF1, Saccharomyces cerevisiae, UniProt P17106, residues 1-351)
Sequence of UniProt P17106 (whole entry, looked up): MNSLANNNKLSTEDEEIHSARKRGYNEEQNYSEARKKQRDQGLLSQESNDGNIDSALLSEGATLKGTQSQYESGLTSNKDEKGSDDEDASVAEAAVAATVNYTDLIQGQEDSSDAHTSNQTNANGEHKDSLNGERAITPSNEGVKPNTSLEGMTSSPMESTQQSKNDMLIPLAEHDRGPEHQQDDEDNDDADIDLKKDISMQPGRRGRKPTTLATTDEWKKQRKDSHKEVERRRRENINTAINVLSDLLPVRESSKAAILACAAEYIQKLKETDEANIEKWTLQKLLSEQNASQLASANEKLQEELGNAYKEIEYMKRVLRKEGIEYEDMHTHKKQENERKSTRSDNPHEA
Technique: competition protein-binding microarray
Molecule type: double-stranded DNA, one strand shown
Medium: in vitro
Concentration: 2 µM
Notes: whole 60-bp probe, lowest competitor level
With: Pho4 competitor, 0.05 µM
Direction: higher = stronger binding
Quantity: fluorescence intensity
Shared flanks, not repeated: … GTCTTGATTCGCTTGACGCTGCTG
AAAAATCTCGCAGACCATGTGACGGCCGGTACTCCT: 623 a.u.
CTTCTGTAAATTTGGCGCGTGGGTGGACGCGCCCCG: 75.1 a.u.
CTAACGAAGGTTTGTGAAGTGGGTGACAAGCCAAGT: 80.4 a.u.
ACAAAATTGCAGGGCAACGTGTATCATTCAGTAGAG: 95.8 a.u.
GCATTATACCTAAAGCACGCAGAGAAACCTCTCTTT: 69.9 a.u.
AACTGGCATAATCGAGTTGTGACGAACAAACTTAAC: 80.1 a.u.
TAGTTGTGCCTCGACCACGTGAGAAGGCGGTATTCA: 1130 a.u.
GTATTATATGATGTATTCGTGCCAGTATCATGCATA: 101 a.u.
GTCTTGTCTCATTTTCACGTGCGTTTCCCCACTTCA: 780 a.u.
AAGCTGAAAAGGCTAAACGTGCCGAGTCCAGCCAAA: 71.8 a.u.
GATTCTCTCCTCGACCACGGGGGGCAACTCTGCCTG: 108 a.u.
TCAATATAATTCTGTCATGCTTGGCCTTACTGCTTA: 95.7 a.u.
GTCTTGTCTCATTGCAGTGTGGGTGTCCCCACTTCA: 74.6 a.u.
AAAGCGGTAATTTGTAGGGTGGGTGCAGATATCTAT: 75.2 a.u.
TGCGCAACAACTTTTCACGTGGGCTTATGTCTAGAA: 966 a.u.
GTAACTTTACCGTCCCACGTGTCCAAAGGTACGCTG: 1330 a.u.
CATACCCAACCTTTTCACGTGATTTAAGATATTTGT: 3850 a.u.
ATTTTTATAATATCCAATAGAGTAGAGTTGTTACAT: 69.6 a.u.
CATACCCAACCTTGTAGAGTGGGTGAAGATATTTGT: 89.7 a.u.
GAAAATCATCCATTACACGTGTTTTCCTCTTTGATT: 1170 a.u.
AGGCACAACTTTCCGCACGTAGTGTTTTCAGCCCCA: 73.1 a.u.
CTATACTGTCATAGACCCGTGTGGAGGAGGCAGCGC: 63 a.u.
CGGGGTTAAGTTTGTCACCACACTTGCTTGCAGCAG: 82 a.u.
GGGTTGAACGACCGTCACATGTGTGCGGATGTAGTT: 400 a.u.
GGATTTGATTACCATCACGTGATGGAATGCTTTTGT: 13000 a.u.

Block 2
Target: RING finger protein unkempt homolog, zinc fingers 1-6, GST-SBP tag (UNK, Homo sapiens, UniProt Q9C0B0, residues 30-357)
Sequence of UniProt Q9C0B0 (30-357, looked up): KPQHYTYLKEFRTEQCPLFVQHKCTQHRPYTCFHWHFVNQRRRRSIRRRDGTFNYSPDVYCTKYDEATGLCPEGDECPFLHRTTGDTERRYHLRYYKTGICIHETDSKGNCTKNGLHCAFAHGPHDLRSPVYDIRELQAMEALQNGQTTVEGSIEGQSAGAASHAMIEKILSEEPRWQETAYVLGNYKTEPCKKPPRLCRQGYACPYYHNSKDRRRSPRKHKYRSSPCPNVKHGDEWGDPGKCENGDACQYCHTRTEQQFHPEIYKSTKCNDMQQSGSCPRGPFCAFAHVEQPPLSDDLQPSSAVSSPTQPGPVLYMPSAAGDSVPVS
Technique: RNA Bind-n-Seq
Molecule type: RNA
Medium: in vitro
Concentration: not given
Notes: RNA with constant flanks, human-mouse chimeric sites, ends assumed
Relative to: input RNA pool
Direction: higher = stronger binding
Quantity: bound/input enrichment
Shared flanks, not repeated: GGGAGUUCUACAGUCCGACGAUC … CAACAGAGGAUUGAGCAUCA
AAAGAACCUCUCUCUGAUGAAGAUGAGGAAGACAAUGAUGAUGUUGAACCCAUUUCUGAAUUUCGAUUUGUGCCCAGUGAUAAAUCAGCAUUGGAGGCGAUGUUCACAGCAAUGUGUGAG: 0.268 ratio
GCGGCAGAAUCAUGGUGGACAUAAUGCAGCUCCCCAAAGCGCGCGUCAACGCCAGCAUGUUACCACAGUAUAUCGACCGGCCCGUGUGCUUCGUAGGGAAGCUGGAAAAGAUUCAUCCCA: 0.149 ratio
CUGUGUGGCUUACUAAAAUGGCUUGUAAAGAAGUUUUUCCAAGCUGUACCCAUGUACGUUAUUAUAGUUGCUGCAAAAUGUUCUUCCUGAUAUUGAUUUUAUUUGUUAACUGAAGGUCUC: 0.281 ratio
ACCAUUUCUGAAUACACGGCUUUGUGUGUAGUUCACUUACGGUAUUAAAUUAUUAUUCUGCUUAGCUUAUAAUAAGGAUAAUUGCAUGAUUUAAGUAUACUGAAUGUUACUCUGAAACUU: 0.419 ratio
AAAGAACCUCUCUCUGAUGAAGAUGAGGAAGACAAUGAUGAUGUUGAACCUAUUACUGAAUUUCGAUUUGUGCCCAGUGAUAAGUCAGCGUUGGAGGCGAUGUUCACAGCAAUGUGUGAG: 0.294 ratio
GAUCAUGAACCACCAUCAGAAAUGAAGAUGAGAUUACCCAGACGAGCCAAAACAGCUAGCACUAGAAAAAGUAAACUUAACCUUGCACCAAUUUCUCAUGAAGAUACAAGUUAAGAGAGC: 1.61 ratio
UCUUAACUUAUUCAUUUCUUAUUUUUAUAUAGCUAGAGCAAUAUUGUUAGUCUUAGACAAUAGCUCACAUUUUUUGAGAAGCAUGCCCUCCCUGUCCAUUUGUCUUAUAACAUGACCCAG: 64.7 ratio
GCUCUUGGGAAUGUAAUCAGCGCCUUGGGGGACAAGAGCAAGAGAGCCACACAUGUCCCUUACAGAGACUCUAAGCUGACAAGACUCCUACAGGAUUCCCUUGGGGGUAACAGCCAAACC: 0.126 ratio

Block 3
Target: Ras GTPase-activating protein-binding protein 1, C-terminal RGG region (G3BP1, Homo sapiens, UniProt Q13283)
Sequence of UniProt Q13283 (whole entry, looked up): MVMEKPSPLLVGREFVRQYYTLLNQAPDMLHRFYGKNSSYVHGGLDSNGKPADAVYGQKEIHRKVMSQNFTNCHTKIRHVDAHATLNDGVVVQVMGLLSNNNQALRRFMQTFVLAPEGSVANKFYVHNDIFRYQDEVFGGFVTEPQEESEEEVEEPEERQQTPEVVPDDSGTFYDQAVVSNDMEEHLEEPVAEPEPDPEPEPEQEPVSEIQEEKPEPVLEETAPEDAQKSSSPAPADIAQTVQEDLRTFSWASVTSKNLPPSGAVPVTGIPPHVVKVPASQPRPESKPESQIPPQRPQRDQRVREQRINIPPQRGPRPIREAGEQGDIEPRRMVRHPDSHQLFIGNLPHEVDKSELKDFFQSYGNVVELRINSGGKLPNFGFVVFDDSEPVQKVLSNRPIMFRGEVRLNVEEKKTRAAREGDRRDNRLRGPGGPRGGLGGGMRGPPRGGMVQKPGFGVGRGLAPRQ
Technique: RNA Bind-n-Seq
Molecule type: RNA
Medium: in vitro
Concentration: 1 µM
Notes: whole 134-nt RNA, ends assumed
With: 150 mM KCl
Relative to: input library
Direction: higher = stronger binding
Quantity: log2 enrichment
Shared flanks, not repeated: GGGAGUUCUACAGUCCGACGAUC … UGGAAUUCUCGGGUGUCAAGG
AAGUCCUGUGCUACACAUCGUAUGUACCGAAUCGGGAGGGAAAAAGGGAAAAAGGGAAAGUAUUAUGUUACGCCGUUCGGAUCUGCACUU: 0.89
GCAGGAAGUAAAAACAAAUGGAAAUGCUUCGGAAAGUGGCAGGGGUGGGGGUUGCUAAGGAAAGGGUGGGAUGGGAGUGGGUAAAGAGUU: 2.09
CAAGUCCUGUGCUACACAUCGUAUGUACCGAAUCGGGUUUGGGGUUUGGGUUUGGGAAAGUAUUAUGUUACGCCGUUCGGAUCUGCACUU: 1.97
UGUGCUACACAUCGUAUGUACCGAAUCGGGCCCCCCCGGGGCCCCCCCGGGGCCCCCCCGGGGAAAGUAUUAUGUUACGCCGUUCGGAUC: -2.68
AGUCCUGUGCUACACAUCGUAUGUACCGAAUCGGGAAAAAAAGGGUGGGAAAAAGGGAAAGUAUUAUGUUACGCCGUUCGGAUCUGCACU: 0.501
CUGUGCUACACAUCGUAUGUACCGAAUCGGGGUUUUUGGGGAAAAAAAGGGGAAAAAGGGGAAAGUAUUAUGUUACGCCGUUCGGAUCUG: 0.129
AAGUCCUGUGCUACACAUCGUAUGUACCGAAUCGGGUUUGGGUUUUUUUGGGUGGGAAAGUAUUAUGUUACGCCGUUCGGAUCUGCACUU: 0.678
AGUCCUGUGCUACACAUCGUAUGUACCGAAUCGGAAAAAGGUUUUUUUGGAAAAAGGAAAGUAUUAUGUUACGCCGUUCGGAUCUGCACU: -2.62
UGGGAGGUGGAUUUUGUUUAUUUUUUUCGCUCAUUUCCAGGGGUGGGAAUUUUUUUUUAAUAUGUGUCAUGAAUAAAGUUGUUUUUGAAA: 3.55
CCUGUGCUACACAUCGUAUGUACCGAAUCGGGUUUUUUGGGGUUUUUUGGGGUUUUUUGGAAAGUAUUAUGUUACGCCGUUCGGAUCUGC: -1.12

Block 4
Target: Sal-like protein 4, full length isoform B (SALL4, Homo sapiens, UniProt Q9UJQ4-2, residues 1-616)
Technique: universal PBM
Molecule type: double-stranded DNA, one strand shown
Medium: in vitro
Concentration: not given
Notes: 8-mer, flanks averaged, mean of replicates
Direction: higher = stronger binding
Quantity: E-score
Residues (chain): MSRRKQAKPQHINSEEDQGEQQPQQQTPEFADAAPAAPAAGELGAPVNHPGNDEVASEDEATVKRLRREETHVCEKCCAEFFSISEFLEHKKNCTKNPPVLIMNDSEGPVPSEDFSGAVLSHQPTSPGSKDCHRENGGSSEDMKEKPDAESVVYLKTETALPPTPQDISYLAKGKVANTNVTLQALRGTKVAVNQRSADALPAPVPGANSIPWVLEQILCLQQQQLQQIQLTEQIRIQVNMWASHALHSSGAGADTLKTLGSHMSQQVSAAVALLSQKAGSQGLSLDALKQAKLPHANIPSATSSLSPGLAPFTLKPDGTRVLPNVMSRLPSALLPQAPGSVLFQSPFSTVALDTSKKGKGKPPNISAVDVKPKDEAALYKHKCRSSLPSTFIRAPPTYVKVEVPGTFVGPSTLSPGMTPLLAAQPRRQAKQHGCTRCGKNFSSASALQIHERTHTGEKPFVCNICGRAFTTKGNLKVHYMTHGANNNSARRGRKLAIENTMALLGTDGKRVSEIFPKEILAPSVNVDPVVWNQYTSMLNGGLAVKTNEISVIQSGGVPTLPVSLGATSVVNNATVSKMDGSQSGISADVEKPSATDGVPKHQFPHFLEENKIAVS
GTCCAGAC: -0.285
TCGCATCA: -0.00213
GACCGAAA: -0.00839
ATGATACG: 0.26
TCAGAACA: 0.16
ATGTCGCG: -0.0771
CTGTCGCC: -0.299
CGCGCGCA: -0.302
CAAGTGGA: 0.0552
CGGACACC: -0.345
GGGCGTCA: -0.21
ACCCTCCT: -0.21
ACTCTTAC: 0.196
CATTGTCC: 0.0325
CTTTCTTA: 0.0489
GGGAGCCC: -0.402
ACTTTGTA: 0.225
CAGTGCTC: -0.0998
CGTGCGCC: -0.214
TACCACAA: 0.256
GAAGAAGA: 0.0634
GTTCATTA: 0.166
ATTCATTG: 0.143
GAGGCGAC: -0.213
ACGTGACG: 0.0354

For quick reference, copied from above (block 4):
ACTCTTAC: 0.196
CATTGTCC: 0.0325
CTTTCTTA: 0.0489
GGGAGCCC: -0.402
ACTTTGTA: 0.225
CAGTGCTC: -0.0998
CGTGCGCC: -0.214
TACCACAA: 0.256
